{"data": "Published values of several laboratories", "note": "Numbered parts are unrelated; each lists some results of a single study.", "UniProt Q9HC98, sequence (whole entry, looked up)": "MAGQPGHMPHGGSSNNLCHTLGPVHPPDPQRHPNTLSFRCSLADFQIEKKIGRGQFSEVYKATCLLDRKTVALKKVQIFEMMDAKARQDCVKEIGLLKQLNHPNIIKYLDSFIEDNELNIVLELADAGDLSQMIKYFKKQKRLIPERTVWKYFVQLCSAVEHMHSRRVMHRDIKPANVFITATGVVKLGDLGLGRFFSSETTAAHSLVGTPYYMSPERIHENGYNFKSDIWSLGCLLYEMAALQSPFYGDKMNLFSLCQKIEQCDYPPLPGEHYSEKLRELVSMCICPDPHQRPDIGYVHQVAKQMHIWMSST", "UniProt P42336, sequence (whole entry, unmodified, looked up)": "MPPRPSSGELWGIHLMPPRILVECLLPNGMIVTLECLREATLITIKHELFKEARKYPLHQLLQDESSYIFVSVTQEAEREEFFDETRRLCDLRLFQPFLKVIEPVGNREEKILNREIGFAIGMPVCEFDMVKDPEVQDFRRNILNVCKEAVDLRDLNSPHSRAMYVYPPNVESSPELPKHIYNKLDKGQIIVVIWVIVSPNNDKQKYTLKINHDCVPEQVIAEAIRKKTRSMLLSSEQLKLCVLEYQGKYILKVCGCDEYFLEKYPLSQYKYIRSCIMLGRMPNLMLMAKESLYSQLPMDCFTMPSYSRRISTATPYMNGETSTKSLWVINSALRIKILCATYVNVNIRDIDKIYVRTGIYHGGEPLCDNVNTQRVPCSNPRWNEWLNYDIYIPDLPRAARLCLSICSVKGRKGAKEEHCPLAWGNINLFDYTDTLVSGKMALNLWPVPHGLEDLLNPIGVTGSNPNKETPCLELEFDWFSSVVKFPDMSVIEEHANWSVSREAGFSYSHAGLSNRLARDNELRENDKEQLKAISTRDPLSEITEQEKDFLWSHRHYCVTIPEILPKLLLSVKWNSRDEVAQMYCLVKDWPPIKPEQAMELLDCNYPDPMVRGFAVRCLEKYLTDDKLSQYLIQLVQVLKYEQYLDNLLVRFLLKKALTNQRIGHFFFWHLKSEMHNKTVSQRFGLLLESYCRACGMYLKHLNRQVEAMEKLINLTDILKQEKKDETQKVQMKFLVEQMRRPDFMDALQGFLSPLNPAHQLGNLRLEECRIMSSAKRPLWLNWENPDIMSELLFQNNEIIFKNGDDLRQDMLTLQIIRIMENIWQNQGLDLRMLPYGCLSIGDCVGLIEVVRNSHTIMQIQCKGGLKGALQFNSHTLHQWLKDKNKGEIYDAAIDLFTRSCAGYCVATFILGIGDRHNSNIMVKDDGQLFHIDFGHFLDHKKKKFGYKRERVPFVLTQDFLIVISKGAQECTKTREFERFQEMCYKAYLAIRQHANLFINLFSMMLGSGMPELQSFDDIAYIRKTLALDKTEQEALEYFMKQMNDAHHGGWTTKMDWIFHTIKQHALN", "UniProt P52333, sequence (whole entry, looked up)": "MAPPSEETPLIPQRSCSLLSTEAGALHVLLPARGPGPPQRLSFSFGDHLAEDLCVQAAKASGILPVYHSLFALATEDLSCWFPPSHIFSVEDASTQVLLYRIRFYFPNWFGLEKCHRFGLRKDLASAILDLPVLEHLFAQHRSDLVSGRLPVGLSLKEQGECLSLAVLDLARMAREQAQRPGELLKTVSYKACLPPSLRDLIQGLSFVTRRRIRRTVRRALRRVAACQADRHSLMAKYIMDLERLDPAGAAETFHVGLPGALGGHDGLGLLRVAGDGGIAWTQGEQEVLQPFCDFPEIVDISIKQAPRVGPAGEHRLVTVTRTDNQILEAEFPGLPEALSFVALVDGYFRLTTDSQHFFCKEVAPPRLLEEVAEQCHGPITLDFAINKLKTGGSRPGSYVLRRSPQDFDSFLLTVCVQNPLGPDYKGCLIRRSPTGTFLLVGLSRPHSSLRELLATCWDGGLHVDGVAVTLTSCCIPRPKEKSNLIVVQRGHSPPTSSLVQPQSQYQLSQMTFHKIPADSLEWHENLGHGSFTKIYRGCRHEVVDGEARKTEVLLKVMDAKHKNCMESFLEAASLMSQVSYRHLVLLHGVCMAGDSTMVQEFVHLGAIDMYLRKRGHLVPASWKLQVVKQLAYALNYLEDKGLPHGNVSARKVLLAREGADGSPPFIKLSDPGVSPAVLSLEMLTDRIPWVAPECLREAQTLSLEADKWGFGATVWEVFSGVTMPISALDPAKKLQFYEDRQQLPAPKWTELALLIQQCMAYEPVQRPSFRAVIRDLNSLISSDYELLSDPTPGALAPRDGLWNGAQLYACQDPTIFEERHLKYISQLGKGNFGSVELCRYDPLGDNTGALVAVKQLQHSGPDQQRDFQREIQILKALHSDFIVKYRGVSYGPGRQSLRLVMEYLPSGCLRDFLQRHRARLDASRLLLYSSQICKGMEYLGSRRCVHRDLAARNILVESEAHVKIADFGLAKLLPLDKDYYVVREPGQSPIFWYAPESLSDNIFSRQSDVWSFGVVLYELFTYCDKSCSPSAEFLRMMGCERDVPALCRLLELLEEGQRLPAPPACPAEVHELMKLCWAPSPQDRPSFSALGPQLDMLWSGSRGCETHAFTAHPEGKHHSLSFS", "UniProt P11362, sequence (whole entry, looked up)": "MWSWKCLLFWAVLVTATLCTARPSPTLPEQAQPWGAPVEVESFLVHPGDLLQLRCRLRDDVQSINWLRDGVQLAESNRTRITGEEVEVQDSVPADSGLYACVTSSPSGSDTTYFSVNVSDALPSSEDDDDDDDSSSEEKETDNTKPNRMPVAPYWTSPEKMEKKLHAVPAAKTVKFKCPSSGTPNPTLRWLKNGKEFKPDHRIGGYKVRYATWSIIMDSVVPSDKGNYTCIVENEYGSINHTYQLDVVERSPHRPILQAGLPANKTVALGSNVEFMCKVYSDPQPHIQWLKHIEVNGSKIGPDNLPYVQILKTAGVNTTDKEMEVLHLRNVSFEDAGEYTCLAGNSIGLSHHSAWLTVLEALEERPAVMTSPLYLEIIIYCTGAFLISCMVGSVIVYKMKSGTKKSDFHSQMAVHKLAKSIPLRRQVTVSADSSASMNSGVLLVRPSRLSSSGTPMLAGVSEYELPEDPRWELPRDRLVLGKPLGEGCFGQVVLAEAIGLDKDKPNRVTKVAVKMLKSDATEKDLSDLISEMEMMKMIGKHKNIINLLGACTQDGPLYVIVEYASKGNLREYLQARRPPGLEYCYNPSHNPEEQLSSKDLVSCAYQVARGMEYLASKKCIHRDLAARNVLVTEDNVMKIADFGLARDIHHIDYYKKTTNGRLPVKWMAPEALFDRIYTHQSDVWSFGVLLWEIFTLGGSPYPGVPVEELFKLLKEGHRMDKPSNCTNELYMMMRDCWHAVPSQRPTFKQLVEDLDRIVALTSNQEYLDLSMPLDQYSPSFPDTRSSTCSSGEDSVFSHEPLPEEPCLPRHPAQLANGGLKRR", "UniProt P42685, sequence (whole entry, looked up)": "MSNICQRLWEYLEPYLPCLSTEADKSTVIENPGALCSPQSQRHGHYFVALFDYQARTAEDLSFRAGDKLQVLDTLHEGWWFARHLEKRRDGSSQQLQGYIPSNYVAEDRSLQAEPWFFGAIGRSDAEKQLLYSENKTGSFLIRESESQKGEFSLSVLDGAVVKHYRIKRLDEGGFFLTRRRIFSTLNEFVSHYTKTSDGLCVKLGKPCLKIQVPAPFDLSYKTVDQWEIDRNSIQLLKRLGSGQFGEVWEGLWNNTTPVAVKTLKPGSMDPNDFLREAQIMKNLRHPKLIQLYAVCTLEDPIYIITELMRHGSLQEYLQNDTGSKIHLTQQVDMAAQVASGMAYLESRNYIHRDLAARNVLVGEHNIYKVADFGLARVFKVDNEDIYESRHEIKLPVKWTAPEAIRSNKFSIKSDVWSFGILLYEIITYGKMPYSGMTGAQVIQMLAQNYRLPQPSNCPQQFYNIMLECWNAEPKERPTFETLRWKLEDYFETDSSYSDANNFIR", "UniProt P49137, sequence (whole entry, looked up)": "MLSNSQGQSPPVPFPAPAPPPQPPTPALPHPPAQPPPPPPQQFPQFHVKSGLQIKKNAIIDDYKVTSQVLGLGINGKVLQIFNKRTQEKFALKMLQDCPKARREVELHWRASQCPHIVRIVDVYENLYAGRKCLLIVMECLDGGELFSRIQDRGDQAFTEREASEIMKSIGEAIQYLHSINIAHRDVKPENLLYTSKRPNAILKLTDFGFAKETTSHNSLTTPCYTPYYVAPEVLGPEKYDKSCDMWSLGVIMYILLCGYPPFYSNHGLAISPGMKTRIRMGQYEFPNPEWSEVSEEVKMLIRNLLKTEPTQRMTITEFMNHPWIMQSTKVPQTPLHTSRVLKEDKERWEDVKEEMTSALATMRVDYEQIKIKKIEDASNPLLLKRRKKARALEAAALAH"}
{"data": "Set 1", "target": "Ras GTPase-activating protein-binding protein 1, RRM domain (G3BP1, Homo sapiens, UniProt Q13283)", "technique": "RNA Bind-n-Seq", "molecule type": "RNA", "sample": "in vitro", "tested at": "1 µM", "notes": "whole 134-nt RNA, ends assumed", "with": "150 mM KCl", "reference": "input library", "reading": "higher = stronger binding", "UniProt Q13283, sequence (whole entry, looked up)": "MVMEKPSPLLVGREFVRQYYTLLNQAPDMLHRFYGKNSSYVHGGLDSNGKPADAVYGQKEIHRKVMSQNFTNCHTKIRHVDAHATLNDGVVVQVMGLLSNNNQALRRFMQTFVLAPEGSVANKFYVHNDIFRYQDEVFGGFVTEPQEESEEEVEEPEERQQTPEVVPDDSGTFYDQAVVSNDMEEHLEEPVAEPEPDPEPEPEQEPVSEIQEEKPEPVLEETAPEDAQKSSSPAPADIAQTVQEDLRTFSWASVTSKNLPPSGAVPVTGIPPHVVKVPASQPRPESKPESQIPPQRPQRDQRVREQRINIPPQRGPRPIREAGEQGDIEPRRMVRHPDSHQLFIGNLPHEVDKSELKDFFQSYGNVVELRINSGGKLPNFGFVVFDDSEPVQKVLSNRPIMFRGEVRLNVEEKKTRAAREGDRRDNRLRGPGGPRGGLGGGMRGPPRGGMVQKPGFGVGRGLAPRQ"}
{"Oligonucleotide": "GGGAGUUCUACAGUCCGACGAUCUGGCCCUGGUGGCAUGCGGGGAGGAAGAGGUGGCCUCAUGGAUCCUGGUGGUCCCGGUGGAAUGUUCAGAGGUGGCCGUGGUGGAGACAGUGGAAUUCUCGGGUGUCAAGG", "log2 enrichment": 1.13}
{"Oligonucleotide": "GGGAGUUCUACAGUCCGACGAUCAAGUCCUGUGCUACACAUCGUAUGUACCGAAUCGGGUUUUUGGGUGGGUUUUUGGGAAAGUAUUAUGUUACGCCGUUCGGAUCUGCACUUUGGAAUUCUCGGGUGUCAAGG", "log2 enrichment": 0.547}
{"Oligonucleotide": "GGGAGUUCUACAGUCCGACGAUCCAAGUCCUGUGCUACACAUCGUAUGUACCGAAUCGGGGAAAGGGAAAGGAAAGGGGAAAGUAUUAUGUUACGCCGUUCGGAUCUGCACUUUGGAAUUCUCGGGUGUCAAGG", "log2 enrichment": 0.259}
{"Oligonucleotide": "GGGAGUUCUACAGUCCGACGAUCGCAGGAAGUAAAAACAAAUGGAAAUGCUUCGGAUAGCGGCAGGGGUGGGGGUUGCUAAGGAAAGGGUGGGAUGGGAGUGGGUAAAGAGUUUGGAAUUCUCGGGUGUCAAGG", "log2 enrichment": 0.654}
{"Oligonucleotide": "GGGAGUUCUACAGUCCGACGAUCUGUGCUACACAUCGUAUGUACCGAAUCGGGGAAAAAGGGGAAAAAAAGGGGAAAAAAAGGGGAAAGUAUUAUGUUACGCCGUUCGGAUCUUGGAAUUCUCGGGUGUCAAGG", "log2 enrichment": 1.15}
{"Oligonucleotide": "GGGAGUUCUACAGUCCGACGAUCUCAAGUCCUGUGCUACACAUCGUAUGUACCGAAUCGGAAAAAAAGGUUUGGUGGAAAGUAUUAUGUUACGCCGUUCGGAUCUGCACUUCCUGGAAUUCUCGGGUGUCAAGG", "log2 enrichment": -0.18}
{"Oligonucleotide": "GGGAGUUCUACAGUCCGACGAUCUGGGAGGUGGAUUUUGUUUAUUUUUUUAGCUCAUUUCCAGGGGUGGGAAUUUUUUUUUAAUAUGUGUCAUGAAUAAAUUUGUUUUUGAAAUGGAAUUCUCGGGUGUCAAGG", "log2 enrichment": 1.45}
{"Oligonucleotide": "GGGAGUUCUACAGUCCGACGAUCUGGGAGGUGGAUUUUGUUUAUUUUUUUAGCUCAUUUCCAGGGGUGGGAAUUUUUUUUUAAGAUGUGUCAUGAAUAAAGUUGUUUUUGAAAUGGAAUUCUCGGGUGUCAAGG", "log2 enrichment": 1.96}
{"data": "Set 2", "target": "RNA binding protein fox-1 homolog 2, RRM domain, GST-SBP tag (RBFOX2, Homo sapiens, UniProt O43251-10, residues 100-194)", "technique": "RNA Bind-n-Seq", "molecule type": "RNA", "sample": "in vitro", "tested at": "365 nM", "notes": "natural RNA segment, single round, ends assumed", "reference": "no-protein control", "reading": "higher = stronger binding", "Target sequence (chain)": "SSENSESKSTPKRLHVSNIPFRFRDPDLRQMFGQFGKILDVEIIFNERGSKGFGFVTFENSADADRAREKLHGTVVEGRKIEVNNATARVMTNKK"}
{"Oligonucleotide": "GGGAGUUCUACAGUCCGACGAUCAAAAGGGUGAAGAGCUCAAAGAACCCCGACUCCCCCCUCCCCUCCCACCUCAUUGUGUACCAUGAGGGGUCCUUGGGAAAUGUCUUACCUCUUGUGUUGAAUGGAGACCUUGGAAUUCUCGGGUGCCAA", "RBNS enrichment (R)": 0.717}
{"Oligonucleotide": "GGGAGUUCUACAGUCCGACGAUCGAUGGUAGGAGGAGUCACUAAUGUUUCAAUCUCUAUUUCUGUAAUCUUGGGCAAUAAUGCAUAGGAGUUCUUGAUACCCCUUCAUUGAUUACUGUGUAUCAGUUCUUUGUUGGAAUUCUCGGGUGCCAA", "RBNS enrichment (R)": 0.381}
{"Oligonucleotide": "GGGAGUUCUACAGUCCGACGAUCGCUACUCUAAUCUUUUACGUAUUAAAUGCACUAGGCUAGUAGCCCUUGCCUUUCCUUUCCUGAAACUCUUUCAACACAACUGUGUCUAUAUGACUACGGCUCAUGCUUCCUGGAAUUCUCGGGUGCCAA", "RBNS enrichment (R)": 0.302}
{"Oligonucleotide": "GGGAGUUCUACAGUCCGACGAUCUCUUGUCUCACCAAGUUUUUUCUCUCCAAAGGUUUCCAGGAAUUUCUCAUUAAUGGCUGAUGCAAACUUAGUGAAUAAUAAUGAAUAUAAACAAUGCUCACCUCACCAAAUGGAAUUCUCGGGUGCCAA", "RBNS enrichment (R)": 0.413}
{"Oligonucleotide": "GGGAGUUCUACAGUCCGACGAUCCUUGCUACACAUCCAUUUGGGGUGGACUAUCAGACCAGGCAAGCCAGUCCUAAAGGCUUCUGUGAAGGAAACCACAGAAAGUGAAAGAAGCAGAAUUAGAAAGAGCAUUCUGGAAUUCUCGGGUGCCAA", "RBNS enrichment (R)": 0.376}
{"Oligonucleotide": "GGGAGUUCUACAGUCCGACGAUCUGUAGGCUUCUCCCUUGUGCAAAGCUUAGCAAUUUGUAGGAAACUUUGAUCUUUUUGUCCAAGAAAAGGAAUGUCUGACAGGCUUAAGCUUUCGUCCCCUUGCACUUAGAUGGAAUUCUCGGGUGCCAA", "RBNS enrichment (R)": 0.399}
{"Oligonucleotide": "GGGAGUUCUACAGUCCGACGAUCCUAGGUAGAAUUUUUAAGUCUAACGUGAACUUUAGCUUUAUCAGACAUUUUUGUUACUAGUGCCUAGAACAUAGUAGGUGCUCAAUAAAUACACAUGGAGUAAUUGAAUGUGGAAUUCUCGGGUGCCAA", "RBNS enrichment (R)": 0.292}
{"Oligonucleotide": "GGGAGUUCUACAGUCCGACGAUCACUUAGCAGUGGGACCUCACUUUUACAAGCACUGCUCUAGAUAUACUUGAAGAAUUUAAUAGGUACAGAAGUUUAUUCUGGAUAAUAAAUAAAUAAGGAUCACACUGUAUUGGAAUUCUCGGGUGCCAA", "RBNS enrichment (R)": 0.521}
{"data": "Set 3", "SMILES": "CS(=O)(=O)NCC[C@H](NC(=O)c1cncc2c1cnn2-c1ccc(F)cc1)c1ccnc(S(C)(=O)=O)c1", "tested at": "1 µM"}
{"target": "WNK3 (Homo sapiens, UniProt Q9BYP7)", "assay": "cell-free assay, competition with immobilised ligand", "remaining binding [%]": 100}
{"target": "CDK13 (Homo sapiens, UniProt Q14004)", "assay": "cell-free assay, competition with immobilised ligand", "remaining binding [%]": 100}
{"target": "BMP2K (Homo sapiens, UniProt Q9NSY1)", "assay": "cell-free assay, competition with immobilised ligand", "remaining binding [%]": 92}
{"target": "PIK3CA (Homo sapiens, UniProt P42336, Q546K)", "assay": "cell-free assay, competition with immobilised ligand", "remaining binding [%]": 73}
{"target": "AAK1 (Homo sapiens, UniProt Q2M2I8)", "assay": "binding", "remaining binding [%]": 100}
{"data": "Set 4", "Structure (SMILES)": "O=C(O)/C=C/c1cc(Br)c(Br)c(Br)c1Br", "read-out": "enzyme activity", "action": "inhibitor", "tested at": "0.5 µM", "reference": "control"}
{"target": "WEE1 (Homo sapiens, UniProt P30291)", "remaining activity [%]": 99.1}
{"target": "JAK3 (Homo sapiens, UniProt P52333)", "remaining activity [%]": 71.8}
{"target": "TBK1 (Homo sapiens, UniProt Q9UHD2)", "remaining activity [%]": 91.4}
{"target": "FGFR1 (Homo sapiens, UniProt P11362)", "remaining activity [%]": 95.2}
{"target": "TEK (Homo sapiens, UniProt Q02763)", "remaining activity [%]": 94.4}
{"target": "ABL2 (Homo sapiens, UniProt P42684)", "remaining activity [%]": 88.7}
{"target": "GSK3B (Homo sapiens, UniProt P49841)", "remaining activity [%]": 105}
{"target": "ULK2 (Homo sapiens, UniProt Q8IYT8)", "remaining activity [%]": 80.3}
{"target": "MERTK (Homo sapiens, UniProt Q12866)", "remaining activity [%]": 92.4}
{"target": "MAPKAPK2 (Homo sapiens, UniProt P49137)", "remaining activity [%]": 91.5}
{"target": "FRK (Homo sapiens, UniProt P42685)", "remaining activity [%]": 102}
{"target": "CSNK1G2 (Homo sapiens, UniProt P78368)", "remaining activity [%]": 90.1}
{"target": "NEK6 (Homo sapiens, UniProt Q9HC98)", "remaining activity [%]": 102}
{"note": "A few entries again (set 4):"}
{"target": "MERTK (Homo sapiens, UniProt Q12866)", "remaining activity [%]": 92.4}
{"target": "JAK3 (Homo sapiens, UniProt P52333)", "remaining activity [%]": 71.8}
{"target": "WEE1 (Homo sapiens, UniProt P30291)", "remaining activity [%]": 99.1}
{"target": "ABL2 (Homo sapiens, UniProt P42684)", "remaining activity [%]": 88.7}
{"target": "FRK (Homo sapiens, UniProt P42685)", "remaining activity [%]": 102}
